Results pooled from the literature.
± gives the spread as reported.

| SMILES | assay | test system | conditions | how to read | endpoint | result |
| --- | --- | --- | --- | --- | --- | --- |
| COC(=O)N[C@H](C(=O)N[C@@H](Cc1ccccc1)[C@@H](O)CN(Cc1ccc(-c2ccccn2)cc1)NC(=O)[C@@H](NC(=O)OC)C(C)(C)C)C(C)(C)C | population PK model | pregnant women, postpartum | oral, median, together with: without tenofovir |  | Vd/F | 113 L |
| CS(=O)(=O)n1cc2c(n1)CN([C@@H]1C[C@H](N)[C@@H](c3cc(F)ccc3F)O[C@@H]1C(F)(F)F)C2 |  | human, plasma | oral, 50 mg, 1008 h after first dose, multiple dose |  | Ctrough | 26.6 ± 13.1 ng/mL |
| C[C@]12CC[C@@H]3c4ccc(O)cc4CC[C@H]3[C@@H]1C[C@@H](O)[C@@H]2O | GC-MS | breast cancer women on NSAI, serum | vaginal, 0.03 mg, 6 h, day 0 |  | minimum serum concentration | 0 ng/mL |
| C#C[C@]1(CO)O[C@@H](n2cnc3c(N)nc(F)nc32)C[C@@H]1O |  | human, plasma | oral, 200 mg, single dose, fasted |  | AUC(0-inf) | 25.6 µM·h |
| C[C@@H](O)[C@H]1C(=O)N2C(C(=O)O)=C(S[C@@H]3CN[C@H](C(=O)N(C)C)C3)[C@H](C)[C@H]12 | microdialysis | pig, Danish Landrace, cancellous bone | intravenous, 1000 mg over 10 min, 450 min dosing interval, together with: 0.125 µg/mL MIC | relative to: dosing interval | time above MIC | 62% |
| CC(C)=CCC[C@](C)(O[C@@H]1O[C@H](CO)[C@@H](O)[C@H](O)[C@H]1O)[C@H]1CC[C@]2(C)[C@@H]1[C@H](O)C[C@@H]1[C@@]3(C)CC[C@H](O[C@@H]4O[C@H](CO)[C@@H](O)[C@H](O)[C@H]4O[C@@H]4O[C@H](CO)[C@@H](O)[C@H](O)[C@H]4O)C(C)(C)[C@@H]3CC[C@]12C |  | Sprague-Dawley rat, plasma | oral, 200 mg/kg ginseng extract, after control diet 2 weeks |  | AUC | 8970 ± 380 ng·h/mL |
| CC(C)[C@H](NC(=O)[C@@H]1CCCN1C(=O)[C@H](CCCNC(=N)N)NC(=O)[C@H](CS)NC(=O)[C@H](Cc1c[nH]c2ccccc12)NC(=O)[C@H](CCCNC(=N)N)NC(=O)[C@@H](Cc1ccccc1)NC(=O)[C@H](Cc1c[nH]cn1)NC(=O)[C@H](CCC(=O)O)NC(=O)[C@H](CS)NC(=O)[C@H](CS)NC(=O)[C@H](CCCCN)NC(=O)[C@@H]1CC(=O)N[C@@H](CCCNC(=N)N)C(=O)N[C@@H]([C@@H](C)O)C(=O)N[C@@H](CC(=O)O)C(=O)N[C@H](Cc2ccc(O)cc2)C(=O)N1)C(N)=O [technetium-99m labelled] |  | female C57 mouse, B16/F1 melanoma, intestines | intravenous, dose not given, 2 h, together with: NDP-MSH 10 µg co-injected |  | tissue uptake | 1.16 ± 0.61 %ID |
| Cc1nc2cccc(OCC(C)(C)C(=O)NC(C)C)c2c(N)c1C(=O)O |  | male Sprague-Dawley rat, plasma | intravenous, 1 mg/kg, single dose |  | Cmax | 2040 ng/mL |
| CC(C)C[C@H](NC(=O)[C@H](CC(C)C)NC(=O)[C@@H](Cc1c[nH]c2ccccc12)NC(=O)[C@@H](NC(=O)[C@@H](Cc1csc2ccccc12)NC(=O)[C@@H](N)CCCCN)[C@H](c1ccccc1)c1c[nH]c2ccccc12)C(N)=O | RP-HPLC Jupiter Proteo |  | acetonitrile/water TFA gradient |  | HPLC retention | 61 %B |
| CCCC[C@H](NC(C)=O)C(=O)N[C@H]1CCC(=O)NC[C@@H](C(=O)N[C@@H](Cc2c[nH]c3ccccc23)C(N)=O)NC(=O)[C@H](CCCNC(=N)N)NC(=O)[C@@H](Cc2ccccc2)NC(=O)[C@H](Cc2c[nH]cn2)NC1=O |  | female rat, plasma | subcutaneous, 5 mg/kg/day, multiple doses, once daily |  | AUC(0-t) | 3750 ng·h/mL |
| NC(=O)OCC(COC(N)=O)c1ccccc1 |  | Sprague-Dawley rat, male, liver | oral, 1920 mg/kg, 6 h, single high dose | direction not given | hepatocyte vacuolization score | 0 |
| O=C(O)[C@H](c1ccccc1Cl)N1CCc2sccc2C1 | HPLC-MS/MS | feline EDTA plasma | 48 h, 4 °C, storage stability |  | deviation from nominal | -7% |
| Cn1c(-c2ccc(C(N)=O)cc2F)nnc1C(C)(C)Oc1c(F)cc(Cl)cc1F |  | healthy young Japanese subjects, plasma | oral, 10 mg once daily, day 18, 14 days dosing |  | Tmax range | 1 to 4 h |
| COc1cccc(N2CCN(C3=Nc4c(F)cccc4[C@H](CC(=O)O)N3c3cc(C(F)(F)F)ccc3OC)CC2)c1 |  | healthy women, plasma | intravenous, 240 mg once daily, day 14, 30-min infusion |  | terminal elimination rate constant | 1.04e-05 ± 6.11e-06 s⁻¹ |

Some of these lines once more:
| SMILES | assay | test system | conditions | how to read | endpoint | result |
| --- | --- | --- | --- | --- | --- | --- |
| NC(=O)OCC(COC(N)=O)c1ccccc1 |  | Sprague-Dawley rat, male, liver | oral, 1920 mg/kg, 6 h, single high dose | direction not given | hepatocyte vacuolization score | 0 |
